# Experimental data of several laboratories.
# Each line is one published result; not all experiments were run side by side.
SMILES,assay,test system,conditions,endpoint,result
CCN(Cc1nc2c(N)nc3cc(-c4cc[nH]n4)ccc3c2[nH]1)C(C)=O,grade 1-2 fever,human,"intratumoral, dose not given",patients with adverse event,79%
CCS(=O)(=O)Nc1ccc(Oc2ccc(F)cc2F)c(-c2cn(C)c(=O)c3[nH]ccc23)c1,item: Sepsis,"human, relapsed/refractory AML","oral, dose not given, trial, added: alone or with venetoclax",patients with serious adverse event,5%
COc1c(C)cnc(Cn2cc(C#CCCOP(=O)(O)O)c3c(Cl)nc(N)nc32)c1C,item: fatigue,"human, advanced solid tumours","concentration not given, at least possibly drug-related",patients with adverse event,46%
O=C1Nc2cc3[nH]nc(-c4ccncc4)c3cc2CN1Cc1ccccc1,CTCAE v4.03,"human, relapsed or refractory advanced solid tumours","intravenous, 9.6 mg/kg, pooled schedules",patients with QTc prolongation,44%
Cc1ncnc2c1ccn2[C@@H]1C[C@H](Oc2cc(C(F)F)c(F)c3c2CNCC3)[C@@H](O)[C@H]1O,,"human, phase I patients",dose not given,patients discontinued for adverse events,11%
COc1ncnn2ccc(-c3cnc4nc(C)n(Cc5nnc([C@@H](C)F)o5)c4c3)c12,,human,"oral, dose not given, grade 4",patients with pyrexia,0%
CNC(=O)c1cc(Oc2ccc(NC(=O)Nc3cc(C(C)(C)C)nn3-c3ccc4ncccc4c3)c(F)c2)ccn1,,"human, trial","oral, dose not given, all doses",patients with related serious Vomiting AE,2%
CN(C)C(=O)c1cc2cnc(Nc3ccc(N4CCNCC4)cn3)nc2n1C1CCCC1,item: interstitial lung disease or pneumonitis,"human, HR+/HER2− advanced breast cancer","oral, dose not given, grade 4, CTCAE v4.03",patients with adverse event,0%
NC(=O)[C@H]1CCN(c2ncnc(N)c2F)C[C@@H]1N1CCC[C@@H](Nc2cc(Cl)cc(C(F)(F)F)c2)C1=O,,human patients,"oral, dose not given, grade ≥3",patients with leukocytosis,5%
Cc1cn([C@H]2O[C@@H](CO[P@@](=O)(N[C@@H](C)C(=O)OC(C)C)Oc3ccccc3)[C@H](O)[C@H]2F)c(=O)[nH]c1=O,item: Flu,human,25 mg,patients with TEAE,0%
C[C@]1(O)C[C@@](N)(c2ccc(-c3nc4n(c3-c3ccccc3)COc3ccncc3-4)cc2)C1,,"human, advanced or metastatic solid tumours","16 mg once daily, phase I dose escalation",patients with AST increased,0%
Cn1ncc(-c2nc(N[C@H]3CC[C@H](N)CC3)ncc2Cl)c1CC1CC1,item: treatment-related Diarrhea,human patients phase I,dose not given,patients with adverse events,12.9%
CCN(CCO)CCCC(C)Nc1ccnc2cc(Cl)ccc12 (stereo not shown),,"human, newly diagnosed glioblastoma","oral, 400 mg/dose, platelet decrease grade 1, with RT and TMZ",patients with adverse event,29%
C=CCNc1c(O)cc2c(O)c1C[C@@H](C)C[C@H](OC)[C@H](O)[C@@H](C)/C=C(\C)[C@H](OC(N)=O)[C@@H](OC)/C=C\C=C(/C)C(=O)N2,,human unresectable metastatic GIST or sarcoma,"intravenous, dose not given",patients with dosing interruptions,44%
Cn1cncc1-c1c(F)cncc1NC(=O)c1c(N)nn2cc(F)cnc12,,human patients,"oral, dose not given, all doses",patients grade ≥3 Platelet count decrease,6%
O=C([O-])CN1CCN(CC(=O)[O-])CCN(CC(=O)NCC2CCC(C(=O)N[C@@H](Cc3ccc4ccccc4c3)C(=O)NCCCC[C@H](NC(=O)N[C@@H](CCC(=O)O)C(=O)O)C(=O)O)CC2)CCN(CC(=O)[O-])CC1.[177Lu+3] (stereo partly shown),99mTc-DTPA plasma clearance,human,concentration not given,patients with mild GFR decrease,69%
CCN1[C@@H](C(=O)NC23CCC(C(=O)O)(CC2)CC3)[C@H](c2cccc(Cl)c2F)[C@]2(C(=O)Nc3cc(Cl)ccc32)C12CCCCC2,item: any-grade treatment-related nausea or vomiting,"human, advanced solid tumours","oral, dose not given, phase I, all patients",patients with adverse event,57.1%
COc1ccc(-c2c(-c3ccc(C#N)c(F)c3)nc(N3CCC(N)CC3)n(C)c2=O)cc1F,item: portal vein thrombosis,human patients,"oral, dose not given, dose escalation",patients with serious TEAE,2%
O=C(c1ccc(F)c(F)c1Nc1ccc(I)cc1F)N1CC(O)([C@@H]2CCCCN2)C1,,human patients,"oral, dose not given, dose escalation, suspension",patients with SAE leading to withdrawal,0%
CN[C@@H](C)C(=O)N[C@H]1CN(S(=O)(=O)c2cccc(S(=O)(=O)N3CC[C@H]4CC[C@@H](C(=O)NC(c5ccccc5)c5ccccc5)N4C(=O)[C@@H](NC(=O)[C@H](C)NC)C3)c2)CC[C@H]2CC[C@@H](C(=O)NC(c3ccccc3)c3ccccc3)N2C1=O,,"human, advanced solid tumours",45 mg,patients with treatment-related asthenia,20%
C[C@@H]1OC(=O)NN=C1c1ccc(-c2ccc(F)cc2)c(C(F)(F)F)c1,"phase I trial, item: abdominal distension all grades",human patients,10 mg loading then 0.5 mg daily,patients with adverse event,0%
C=CC(=O)Nc1cc(Nc2nccc(Nc3cc(Cl)c(F)cc3C(C)(C)O)n2)c(OC)cc1N1CC[C@@H](N(C)C)C1,,human patients,"oral, 200 mg, treatment-emergent adverse events",patients with anaemia,25%

# Repeated from above:
SMILES,assay,test system,conditions,endpoint,result
C=CC(=O)Nc1cc(Nc2nccc(Nc3cc(Cl)c(F)cc3C(C)(C)O)n2)c(OC)cc1N1CC[C@@H](N(C)C)C1,,human patients,"oral, 200 mg, treatment-emergent adverse events",patients with anaemia,25%
